Measurements gathered from unrelated publications.
Compare with care: the assays were run in different laboratories. “And” joins repeats or separate records; there may be more than shown. Numbers after ± are the reported error.
UniProt Q16513, sequence (whole entry, looked up): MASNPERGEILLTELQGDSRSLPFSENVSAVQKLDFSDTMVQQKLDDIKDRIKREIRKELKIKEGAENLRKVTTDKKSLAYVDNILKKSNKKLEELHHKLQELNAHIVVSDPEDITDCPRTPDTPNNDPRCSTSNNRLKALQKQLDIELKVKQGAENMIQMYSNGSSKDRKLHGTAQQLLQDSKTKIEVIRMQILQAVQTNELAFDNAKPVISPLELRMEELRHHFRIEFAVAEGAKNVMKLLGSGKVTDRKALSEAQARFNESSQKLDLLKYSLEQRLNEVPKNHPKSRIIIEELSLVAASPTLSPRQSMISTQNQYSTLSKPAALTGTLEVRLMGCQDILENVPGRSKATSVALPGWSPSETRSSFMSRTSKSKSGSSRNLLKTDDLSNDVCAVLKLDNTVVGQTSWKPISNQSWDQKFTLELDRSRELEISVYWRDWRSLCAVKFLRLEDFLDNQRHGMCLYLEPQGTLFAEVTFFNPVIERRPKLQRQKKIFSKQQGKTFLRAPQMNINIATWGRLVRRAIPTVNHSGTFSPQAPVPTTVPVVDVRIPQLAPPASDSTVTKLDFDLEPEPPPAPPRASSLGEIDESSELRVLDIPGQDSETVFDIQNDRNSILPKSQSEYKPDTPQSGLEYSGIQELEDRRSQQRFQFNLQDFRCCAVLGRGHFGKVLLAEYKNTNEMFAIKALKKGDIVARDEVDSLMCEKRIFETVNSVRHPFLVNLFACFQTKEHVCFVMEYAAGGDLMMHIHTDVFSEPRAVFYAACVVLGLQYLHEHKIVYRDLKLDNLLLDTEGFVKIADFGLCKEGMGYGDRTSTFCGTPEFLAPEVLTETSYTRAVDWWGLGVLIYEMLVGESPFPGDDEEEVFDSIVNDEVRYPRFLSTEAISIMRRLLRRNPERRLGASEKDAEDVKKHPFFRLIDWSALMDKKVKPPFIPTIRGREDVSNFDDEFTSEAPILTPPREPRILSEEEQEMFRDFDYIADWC
UniProt Q8TF76, sequence (whole entry, looked up): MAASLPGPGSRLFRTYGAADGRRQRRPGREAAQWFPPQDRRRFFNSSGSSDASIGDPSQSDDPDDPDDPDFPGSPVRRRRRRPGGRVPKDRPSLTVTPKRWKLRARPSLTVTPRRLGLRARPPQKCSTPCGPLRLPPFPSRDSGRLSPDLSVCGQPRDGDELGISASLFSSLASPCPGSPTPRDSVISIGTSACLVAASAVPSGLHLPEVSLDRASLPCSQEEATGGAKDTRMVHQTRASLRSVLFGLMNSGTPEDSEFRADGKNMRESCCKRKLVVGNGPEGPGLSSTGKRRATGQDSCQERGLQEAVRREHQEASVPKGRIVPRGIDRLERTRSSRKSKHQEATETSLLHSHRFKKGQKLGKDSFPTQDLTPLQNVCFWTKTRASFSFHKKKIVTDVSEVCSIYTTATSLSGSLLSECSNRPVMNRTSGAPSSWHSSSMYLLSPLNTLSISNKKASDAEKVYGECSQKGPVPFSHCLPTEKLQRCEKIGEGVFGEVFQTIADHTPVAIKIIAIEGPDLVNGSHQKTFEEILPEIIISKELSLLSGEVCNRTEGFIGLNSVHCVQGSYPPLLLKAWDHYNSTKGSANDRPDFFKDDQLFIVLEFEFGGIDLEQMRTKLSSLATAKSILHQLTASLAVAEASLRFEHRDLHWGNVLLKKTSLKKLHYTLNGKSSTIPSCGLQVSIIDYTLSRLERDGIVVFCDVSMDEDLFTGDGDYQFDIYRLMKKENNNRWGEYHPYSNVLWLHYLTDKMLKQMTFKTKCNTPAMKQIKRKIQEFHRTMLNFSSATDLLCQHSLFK

SMILES	target or system	test	system	setting	scale	quantity	value
COc1ccccc1-c1n[nH]c2nc(NC3CCN(C(=O)Cc4ccc(F)cc4F)CC3)ncc12	–	bead binding, competition bead pull-down, measured: LMJF.21.1552	Leishmania donovani extract	10 µM	reference: vehicle	relative abundance	0.98
O=C(C[Se]C(=O)c1ccco1)Nc1cccc(C(F)(F)F)c1	NCI60 NSCLC subpanel	NCI60 five-dose screen	–	–	–	CC50	44.2 µM
CC(C)(C)C(=O)OCOP(=O)(OCOC(=O)C(C)(C)C)C1CCCN(O)C1=O (stereo not shown)	OVCAR-8	–	–	–	–	CC50	> 100 µM
CC(C)[C@H](NC(=O)[C@H](CCCNC(=N)N)NC(=O)[C@@H]1CCCN1C(=O)[C@@H](NC(=O)[C@H](C)NC(=O)[C@H](Cc1ccc(O)cc1)NC(=O)[C@H](CCC(N)=O)NC(=O)[C@H](CCCCN)NC(=O)[C@H](CCCNC(=N)N)NC(=O)[C@@H]1CCCN1C(=O)[C@H](CCC(=O)O)NC(=O)[C@@H](NC(=O)[C@H](C)N)[C@@H](C)O)[C@@H](C)O)C(=O)N[C@@H](Cc1ccccc1)C(=O)N[C@@H](Cc1c[nH]c2ccccc12)C(=O)N[C@H](C(=O)N[C@@H](CC(=O)O)C(=O)N[C@@H](C)C(=O)N1CCC[C@H]1C(=O)NCC(=O)NCCOCCOCCOCCOCCOCCOCCOCCOCCOCCOCCOCCOCCC(=O)N[C@@H](CS)C(N)=O)[C@@H](C)O	H1264 lung adenocarcinoma	cell binding, phage binding, measured: output/input phage	–	10 min, 37 °C	reference: control phage	selectivity ratio	3.9 ± 1.9
O=C1NC(=O)c2c1c1cc(F)c[n+]3c1c1c2c2cc(O)ccc2[n]1[Ru-4]312([N]=C=S)[S+]3CC[S+]1CC[S+]2CC3 (stereo not shown)	PKN2 (Homo sapiens, UniProt Q16513)	enzyme activity	–	100 nM, human enzyme, together with: 10 µM ATP	reference: untreated	remaining activity	33%
O=C(C[Se]C(=O)c1ccccc1)Nc1cccc(C(F)(F)F)c1	NCI60 NSCLC subpanel	NCI60 five-dose screen	–	–	–	CC50	11.3 µM
CC(C)C[C@H](NC(=O)[C@H](CC(=O)O)NC(=O)CNC(=O)[C@@H](N)CCCNC(=N)N)C(=O)N[C@@H](C)C(=O)N[C@H](C(=O)N[C@@H](CC(C)C)C(=O)N[C@@H](CCCNC(=N)N)C(=O)N[C@@H](CCC(N)=O)C(=O)N[C@@H](CC(C)C)C(=O)N[C@@H](C)C(=O)N[C@@H](CCC(N)=O)C(=O)N[C@@H](CCC(=O)O)C(=O)N[C@@H](CC(=O)O)C(=O)NCC(=O)N[C@H](C(=O)N[C@H](C(=O)NCC(=O)N[C@H](C(=O)N[C@@H](CCCNC(=N)N)C(=O)NCCOCCOCCOCCOCCOCCOCCOCCOCCOCCOCCOCCOCCC(=O)N[C@@H](CS)C(N)=O)C(C)C)C(C)C)C(C)C)[C@@H](C)O	H1648	phage binding	–	10 min, 37 °C	reference: control phage	selectivity ratio	230 ± 99
Cc1cc(C(=O)Nc2nc3cccc(C)c3n2[C@H]2CCCCN(C(=O)/C=C/CN(C)C)C2)ccn1	Trypanosoma brucei	–	STIB795, mouse acute HAT model	oral, 7.5 mg/kg once daily for 4 days, day 0	reference: mice	survival	100%
CSCC[C@H](NC(=O)[C@@H](NC(=O)[C@H](CCC(N)=O)NC(=O)[C@H](CO)NC(=O)[C@@H](N)C(C)C)[C@@H](C)O)C(=O)N[C@@H](CCCNC(=N)N)C(=O)N[C@@H](CCC(N)=O)C(=O)N[C@H](C(=O)N[C@@H](C)C(=O)N[C@H](C(=O)N1CCC[C@H]1C(=O)N[C@@H](CC(C)C)C(=O)N[C@@H](CC(C)C)C(=O)N[C@@H](Cc1c[nH]c2ccccc12)C(=O)N[C@@H](Cc1ccccc1)C(=O)N[C@@H](Cc1c[nH]c2ccccc12)C(=O)N[C@H](C(=O)NCC(=O)N[C@@H](CO)C(=O)N[C@@H](CC(C)C)C(=O)NCCOCCOCCOCCOCCOCCOCCOCCOCCOCCOCCOCCOCCC(=O)N[C@@H](CS)C(N)=O)[C@@H](C)O)C(C)C)[C@@H](C)O	H661 lung large cell carcinoma	cell binding, phage binding, measured: output/input phage	–	10 min, 37 °C	reference: control phage	selectivity ratio	2.8 ± 1
COc1ccccc1-c1ccncc1C(=O)Nc1nnc(OCc2ccc(Cl)cc2)s1	RPE-1 TP53-/- BRCA1-/-	–	–	2 µM	reference: untreated	colony survival	36.2% and 45.9%
O=C1NC2(CC2)COc2ncc(F)cc2[C@H]2COCCN2c2ccn3ncc1c3n2	–	–	Sprague-Dawley rat, female, serum	oral, 20 mg/kg/day, end of recovery, 4-week subacute toxicity	–	serum hepatic lipase activity	3.4 ± 0.1 U/L
CS(C)(=O)=Nc1ccc(-c2ccc(-c3nc4cc(O[C@@H]5CO[C@H]6[C@@H]5OC[C@H]6O)[nH]c4cc3F)cc2)cc1	HASPIN (Homo sapiens, UniProt Q8TF76)	enzyme activity, inhibitor	–	10 µM	–	inhibition	-12%
COc1ccccc1-c1n[nH]c2nc(N[C@H]3CC[C@H](NS(=O)(=O)CC(C)C)CC3)ncc12	–	bead binding, competition bead pull-down, measured: LINJ.35.1820	Leishmania donovani extract	10 µM	reference: vehicle	relative abundance	1.07
CC(C)CC(O)(CC(C)C)c1cn(C(=O)N2CCCC2)nn1	mouse T-cells	SILAC proteomics, measured: NDRG1	–	1 nM, 6 h, unit not given	reference: DMSO	protein level	0.98
CC(=O)NCSC[C@H](NC(=O)[C@@H]1CCCN1C(=O)[C@H](C)NC(=O)[C@@H](NC(=O)CNC(=O)[C@@H](NC(=O)[C@H](Cc1c[nH]c2ccccc12)NC(=O)[C@H](C)NC(=O)CNC(=O)[C@H](CO)NC(=O)[C@H](C)NC(=O)[C@@H]1CCCN1C(=O)[C@H](Cc1c[nH]c2ccccc12)NC(=O)[C@H](C)NC(=O)[C@H](C)NC(=O)[C@@H](N)Cc1ccc(O)cc1)[C@@H](C)O)[C@@H](C)O)C(=O)N[C@@H](CO)C(=O)N[C@@H](C)C(=O)NCC(=O)N[C@H](C(=O)NCCOCCOCCOCCOCCOCCOCCOCCOCCOCCOCCOCCOCCC(=O)N[C@@H](CS)C(N)=O)[C@@H](C)O	PANC-1 pancreatic cancer	cell binding, phage binding, measured: output/input phage	–	10 min, 37 °C	reference: control phage	selectivity ratio	44 ± 12
O=C(C[Se]C(=O)c1cc2ccccc2[nH]1)Nc1cccc(C(F)(F)F)c1	NCI60 prostate subpanel (PC-3, DU-145)	cytotoxicity, inhibitor	–	five-dose	–	CC50	6.37 µM
O=C(O)c1ccc(-c2nc(-c3ccccc3Cl)c3sccn23)cc1	K562	megakaryocyte differentiation, flow cytometry	–	0.1 mM, 48 h	reference: untreated	CD61 fluorescence intensity	1.63 fold change and 1.17 fold change
O=C(C[Se]C(=O)c1cccs1)Nc1cccc(C(F)(F)F)c1	NCI60 ovarian subpanel	cell growth, inhibitor	–	five-dose	–	GI50	1.74 µM
Cc1cc(Oc2nc(N3CC[C@@H](c4ccncc4)C3)ncc2F)[nH]n1	SK-MEL-28	cell proliferation	skin cancer	–	–	IC50	> 100 µM

Some of these lines once more:
SMILES	target or system	test	system	setting	scale	quantity	value
O=C1NC2(CC2)COc2ncc(F)cc2[C@H]2COCCN2c2ccn3ncc1c3n2	–	–	Sprague-Dawley rat, female, serum	oral, 20 mg/kg/day, end of recovery, 4-week subacute toxicity	–	serum hepatic lipase activity	3.4 ± 0.1 U/L
